Results pooled from the literature.
Numbers after ± are the reported error.

CCCC[C@H](NC(=O)CNC(=O)CNC(=O)CN1CCN(CC(=O)O)CCN(CC(=O)O)CC1)C(=O)N[C@H]1CC(=O)NCCCC[C@@H](C(N)=O)NC(=O)[C@H](Cc2c[nH]c3ccccc23)NC(=O)[C@H](CCCNC(=N)N)NC(=O)[C@@H](Cc2ccccc2)NC(=O)[C@H](Cc2c[nH]cn2)NC1=O [technetium-99m labelled]  tissue uptake (C57 mouse, pancreas; iv, 0.037 MBq, 24 h): 0.03 ± 0.05 %ID/g
N=C(N)NCCC[C@@H]1NC(=O)[C@H](CCCCNC(=O)CNC(=O)CNC(=O)CNC(=O)CC[C@H](NC(=O)CNC(=O)CNC(=O)CNC(=O)CN2CCN(CC(=O)O)CCN(CC(=O)O)CCN(CC(=O)O)CC2)C(=O)NCC(=O)NCC(=O)NCC(=O)NCCCC[C@@H]2NC(=O)[C@@H](Cc3ccccc3)NC(=O)[C@H](CC(=O)O)NC(=O)CNC(=O)[C@H](CCCNC(=N)N)NC2=O)NC(=O)[C@@H](Cc2ccccc2)NC(=O)[C@H](CC(=O)O)NC(=O)CNC1=O [indium-111 labelled]  tissue uptake (female athymic nu/nu mice, spleen; intravenous, 111 kBq, 72 h): 0.88 ± 0.17 %ID/g
CC(=O)N(O)CCCCCNC(=O)CCC(=O)N(O)CCCCCNC(=O)CCC(=O)N(O)CCCCCNC(=S)Nc1ccc(NC(=S)NCCC(=O)N[C@H](CC(=O)O)C(=O)N[C@H](CC(=O)O)C(=O)NCCC(=O)N[C@H](CC(=O)O)C(=O)N[C@H](CC(=O)O)C(=O)NCCC(=O)N[C@H](CC(=O)O)C(=O)N[C@H](CC(=O)O)C(=O)NCCC(=O)N[C@H](CC(=O)O)C(=O)N[C@H](CC(=O)O)C(N)=O)cc1 [zirconium-89 labelled]  terminal half-life (BALB/cJ mice, blood; intravenous, 20 µg): 31.8 min
N=C(N)NCCC[C@@H]1NC(=O)[C@H](CCCCNC(=O)CCC(C(=O)O)N2CCCN3CCN(CCCN(C(CCC(=O)NCCCC[C@@H]4NC(=O)[C@@H](Cc5ccc(O)cc5)NC(=O)[C@H](CC(=O)O)NC(=O)CNC(=O)[C@H](CCCNC(=N)N)NC4=O)C(=O)O)CC3)CC2)NC(=O)[C@@H](Cc2ccc(O)cc2)NC(=O)[C@H](CC(=O)O)NC(=O)CNC1=O (stereo partly drawn) [copper-64 labelled]  tumour uptake (SCID mouse, PC-3 xenograft, tumour; iv, dose not given, 4 h): 2.4 ± 0.22 %ID/g
C=C1CC[C@H](OCCCNC(=O)CCOCCOCCOCCOCCOCCOCCOCCOCCOCCOCCOCCOCCOCCOCCOCCOCCOCCOCCOCCOCCOCCOCCOCCOCCOCCOCCOCCOCCOCCOCCOCCOCCOCCOCCOCCOCCNC(=O)CCN2C(=O)CC(SC[C@H](NC(=O)[C@H](Cc3ccccc3)NC(=O)[C@H](CC(N)=O)NC(=O)[C@H](Cc3c[nH]cn3)NC(=O)[C@@H](NC(=O)[C@H](CC(=O)O)NC(=O)[C@H](CCC(N)=O)NC(=O)[C@H](CC(C)C)NC(=O)[C@H](CCCCN)NC(=O)[C@H](CCCCN)NC(=O)[C@H](CCCNC(=N)N)NC(=O)[C@H](CC(C)C)NC(=O)[C@H](Cc3c[nH]c4ccccc34)NC(=O)[C@H](CCC(=O)O)NC(=O)[C@@H](NC(=O)[C@H](CCCNC(=N)N)NC(=O)[C@H](CCC(=O)O)NC(=O)[C@H](CCSC)NC(=O)[C@H](CO)NC(=O)[C@H](CC(N)=O)NC(=O)[C@H](CC(C)C)NC(=O)[C@H](Cc3c[nH]cn3)NC(=O)[C@H](CCCCN)NC(=O)CNC(=O)[C@H](CC(C)C)NC(=O)[C@H](CC(N)=O)NC(=O)[C@H](Cc3c[nH]cn3)NC(=O)[C@H](CCSC)NC(=O)[C@H](CC(C)C)NC(=O)[C@H](CCC(N)=O)NC(=O)[C@@H](NC(=O)[C@H](CCC(=O)O)NC(=O)[C@H](CO)NC(=O)[C@@H](NC(=O)[C@@H](N)CO)C(C)C)[C@@H](C)CC)C(C)C)C(C)C)C(N)=O)C2=O)C/C1=C/C=C1\CCC[C@]2(C)[C@@H]([C@H](C)CCCC(C)(C)O)CC[C@@H]12 (stereo partly drawn)  dose-normalized Cmax (Sprague Dawley rat; subcutaneous, 14.2 µg/kg daily, 21 days; reference: 1 µg/kg dose): 2.48
O=C(O)CC[C@H](NC(=O)N[C@@H](CCCCNC(=O)CCCCC[C@H](NC(=O)CCS[C@@H]1O[C@H](CO)[C@H](O)[C@H](O)[C@H]1O)C(=O)NCCCC[C@@H](NC(=O)[C@@H](Cc1ccccc1)NC(=O)[C@@H](Cc1ccc(O)c(I)c1)NC(=O)CCC(C(=O)O)N1CCN(CC(=O)O)CCN(CC(=O)O)CCN(CC(=O)O)CC1)C(=O)O)C(=O)O)C(=O)O (stereo partly drawn) [gallium-68 labelled]  logP (shake flask n-octanol/PBS; pH 7.4, radiolabelled compound): -4.15 ± 0.07
CCCC[C@H](NC(=O)CCCCCCCNC(=O)CN1CCN(CC(=O)O)CCN(CC(=O)O)CC1)C(=O)N[C@H]1CC(=O)NCCCC[C@@H](C(N)=O)NC(=O)[C@H](Cc2c[nH]c3ccccc23)NC(=O)[C@H](CCCNC(=N)N)NC(=O)[C@@H](Cc2ccccc2)NC(=O)[C@H](Cc2c[nH]cn2)NC1=O [copper-64 labelled]  tissue uptake (C57 mice, tumor; intravenous, 0.37 MBq, 2 h): 7.71 ± 0.67 %ID/g
NC(=O)CCOCCOCCOCCOCCOCCOCCNC(=O)[C@H](Cc1c[nH]cn1)NC(=O)[C@H](Cc1c[nH]cn1)NC(=O)c1ccc(-c2c3nc(c(-c4ccccc4)c4ccc([nH]4)c(-c4ccc(C(=O)N[C@@H](Cc5c[nH]cn5)C(=O)N[C@@H](Cc5c[nH]cn5)C(=O)NCCOCCOCCOCCOCCOCCOCCC(N)=O)cc4)c4nc(c(-c5ccccc5)c5ccc2[nH]5)C=C4)C=C3)cc1  pKa (pH titration; imidazole group): 5.7
COc1cc(/C=C/C(=O)NCCCCCC(=O)N[C@@H](CCCNC(=N)N)C(=O)N[C@@H](CC(C)C)C(=O)N[C@@H](CC(C)C)C(=O)N[C@@H](CCCNC(=N)N)C(N)=O)ccc1O  retention time (RP-HPLC, C18 column; higher is more hydrophobic): 5.5 min

Repeated from above:
COc1cc(/C=C/C(=O)NCCCCCC(=O)N[C@@H](CCCNC(=N)N)C(=O)N[C@@H](CC(C)C)C(=O)N[C@@H](CC(C)C)C(=O)N[C@@H](CCCNC(=N)N)C(N)=O)ccc1O  retention time (RP-HPLC, C18 column; higher is more hydrophobic): 5.5 min
